Assay results pooled from the literature.
Every numbered part comes from another study and shows a few of its results, in no order. Substitutions count along the parent as printed.

Set 1
Target: CCNB1, cyclin fold, Cln2 fusion (human)
Method: yeast growth competition, sequencing
Medium: yeast
Setting: weak parent motif
Baseline: not given
Direction: higher = stronger binding
Starting sequence: SLBP docking peptide (human); ARYKRKLLINDFG
| Variant | normalised enrichment score |
| --- | --- |
| ARYKRKLLINDAG [F12A] | 0.465 |
| ARYKRKLKINDFG [L8K] | -0.135 |
| AEYKRKLLINDFG [R2E] | 1.26 |
| RRYKRKLLINDFG [A1R] | 0.343 |
| CRYKRKLLINDFG [A1C] | 0.469 |
| ARYKRKFLINDFG [L7F] | 0.908 |
| MRYKRKLLINDFG [A1M] | 0.951 |
| ARYKRKYLINDFG [L7Y] | 1.18 |
| ARYKRKLLINDFP [G13P] | 1.33 |
| ARYKRKDLINDFG [L7D] | 0.506 |
| ARYKRKLLWNDFG [I9W] | 1.02 |
| ARYKEKLLINDFG [R5E] | 0.387 |
| ARYARKLLINDFG [K4A] | 0.303 |
| ARYKRQLLINDFG [K6Q] | 0.917 |
| ARYKRKLLIIDFG [N10I] | 0.0952 |
| ARYYRKLLINDFG [K4Y] | 0.719 |
| ARYKRKLLINPFG [D11P] | 1.03 |
| NRYKRKLLINDFG [A1N] | 1.1 |

Set 2
Target: Histone acetyltransferase KAT6A, winged helix 1, GST fusion (KAT6A, Homo sapiens, UniProt Q92794, residues 1-85)
Method: protein binding microarray
Molecule type: double-stranded DNA, one strand shown
Medium: in vitro
Tested at: not given
Setting: 8-mer, flanks averaged, mean of 2 arrays, mostly near background
Baseline: not given
Direction: higher = stronger binding
Construct (chain): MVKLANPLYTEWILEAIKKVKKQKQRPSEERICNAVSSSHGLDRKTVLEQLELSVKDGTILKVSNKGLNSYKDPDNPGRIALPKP
| Sequence | E-score |
| --- | --- |
| ATGCCGTA | 0.386 |
| TTACCCAA | -0.227 |
| GCACGACC | -0.0957 |
| CATCAACA | 0.0591 |
| CGGATCCC | 0.295 |
| ATAAAGAT | -0.0875 |
| CAGGCCCA | -0.186 |
| CCCCAGAG | -0.173 |
| CCAGCATC | -0.127 |
| AGGAAATC | -0.121 |
| ACAATTCT | -0.155 |
| CCGATTCA | -0.201 |
| CTAAAGGA | -0.0215 |
| ATGATGCA | -0.241 |
| ACATCCTG | -0.146 |
| CAGTGATG | -0.139 |
| CAGAGTCG | -0.0971 |
| CGCGTTAG | 0.358 |
| ATATACTA | 0.00328 |
| AAAGTAAC | -0.00012 |

Set 3
Target: MAFG, bZIP domain (human)
Method: DHFR protein complementation
Medium: yeast
Setting: single substitutions, most at no-binding floor
Baseline: wild-type JUN-FOS pair
Direction: higher = stronger binding
Starting sequence: JUN, bZIP domain (human); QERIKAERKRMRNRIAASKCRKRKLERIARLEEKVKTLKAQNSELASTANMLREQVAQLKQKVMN; partner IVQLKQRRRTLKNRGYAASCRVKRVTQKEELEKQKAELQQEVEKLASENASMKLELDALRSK
| Variant | binding fitness [natural log] |
| --- | --- |
| I28M | -1.55 |
| Q55V | -1.5 |
| E32T | -1.46 |
| S43E | -1.48 |
| R53A | -1.49 |
| T48R | -1.4 |
| I28T | -1.45 |
| L52S | -1.43 |
| L45C | -1.45 |
| K36C | -1.5 |

Set 4
Target: RNA binding protein fox-1 homolog 2, RRM domain, GST-SBP tag (RBFOX2, Homo sapiens, UniProt O43251-10, residues 100-194)
Method: RNA Bind-n-Seq
Molecule type: RNA
Medium: in vitro
Tested at: 365 nM
Setting: natural RNA segment, single round, ends assumed
Baseline: no-protein control
Direction: higher = stronger binding
Constant ends, left off below: GGGAGUUCUACAGUCCGACGAUC … UGGAAUUCUCGGGUGCCAA
Residues (chain): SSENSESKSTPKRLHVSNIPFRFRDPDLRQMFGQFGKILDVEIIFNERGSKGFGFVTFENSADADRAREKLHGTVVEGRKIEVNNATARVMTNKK
| Sequence | RBNS enrichment (R) |
| --- | --- |
| GUGCCUCCACCACCCCCAGCAGAAAAAAUAAGAUACUGAAAUAAGUUGAGUCAUUUCGCAAACAUUUACUGAGCACCUCCUGUGUGCCAGGCUCCUAGAAAGACAGGGAG | 0.548 |
| UACUUCUAAUUUCAUUGUAUAUAGGUGGUUUUCCCUGGAAUUCAUUAAUUGUUUGCUUUGGACAUGUGGAAAGAGCCUUACUAAUAAAAUUGAUUUUGCUUAUGAAUUAA | 4.71 |
| ACCCUGGGUCCCACACUGAAAUCCCCUCUAGUCACCCAUUCCCACCCCCCAGGGAGCUGCCUCCCAGGCAGGGGGUGCAGAAAAUGAUUGAUGGGCUGGGGAACCCUGGA | 0.167 |
| AAGAUGAAUACAGCAUCCCGCAGAGGUAGGAUAUGAGGAGGCUAUACUGGAGCGUAGGGAUGAGAUAAAGGGAUGGAUCCGAGUCCUCCCGGGGCCUGCCAAGCUUUUCC | 0.705 |
| CCUCCAUUGGCUUCCUCACUCCAAAAUAGGUGCUGAUCCUUCCUAUUCCUAUUCUUUGCCACCUUUUGGGUGUGGUGUCACCAGCCUGUUUAGCCAAGUAGCUUUGGGCA | 0.654 |
| GGUUUCUUUCAUAACCCAUUUCUUUAACCUCUUGUCAAUGAAAAUAAAAAGAAGAGGAAGGAAGGAAAUGUGUACAAGAAUAAAAGAAGGAAGAGAAGGUAGAAAAAGAA | 0.687 |
| GCCUUGUUUCCUGCCUUAUAUCUUGUAUUUCGACUUAUUACAGAGUUGAGGGUUCUUGCUUAAUUUAGAUCAAGUAUAAAAUUUGUAUGACUUCAAGUCUCAUUUUAUCU | 0.892 |
| UGAGUAGUGUGACAGAGUUUGCCUCUUAAAAUUGUUUUGCUAAUAAGUCAGAAGUUUAAAAUGUGUUAUAGUUUGCUAAAAAAAAAUCAAAUUAACUGCAUAUAAAAUGG | 0.621 |
| AUCGUAAUGUCAAAGCCCUUGCUGAAUGAAGAACAGCUUAGCUCACUUCCUGGAUGUUGCAAUAAUACAAACCAGUGUACCUCUGACCUCACCGGGAGAGCUGGGGCGCU | 0.431 |
| GACAAACUUGGAUCAAGAGGACCCAUUUGGGUGAGGGACCAGGUGGUUUCCAAUCCAGUGUGGACAGCAAAUGAAUGCUAUGCAGGCAUGCAGAUGAGAUCUGUACUAUA | 0.537 |
| AAAUGCCAUGUACUUCUCUUGGGAAAAUAGACCCCCUUGCCUAGAGUAAGUUGUUAACUGAGGGCUUUAAACCUGGAGGCUCUUCCUGAAAGUAUGUUCAUGAAUACCCC | 1.15 |
| CAAAAUAAGGUAACUAUUAACUUGAUUAUACUAUAUAAUAUUCUCAAUUACAUUUGAAUUUAAAAAUAUUGAGCUCUUGAUUACAAUUUAAUACAUUGUAAAAAGUAUUA | 0.775 |

Set 5
Target: Fragile X messenger ribonucleoprotein 1, C-terminal low-complexity region (Fmr1, Mus musculus, UniProt P35922)
Method: RNA Bind-n-Seq
Molecule type: RNA
Medium: in vitro
Tested at: 200 nM
Setting: whole 134-nt RNA, ends assumed
With: 150 mM KCl
Baseline: input library
Direction: higher = stronger binding
Constant ends, left off below: GGGAGUUCUACAGUCCGACGAUC … UGGAAUUCUCGGGUGUCAAGG
| Sequence | log2 enrichment |
| --- | --- |
| UCCUGUGCUACACAUCGUAUGUACCGAAUCGGGGAAAAAGGGGAAAAAGGGGAAAAAGGAAAGUAUUAUGUUACGCCGUUCGGAUCUGCA | -0.0712 |
| UGUGGAUGCCCUGCUGAAGAAGUCUGAGGCCCAGCAUGAACAGCCGGAAGAUGGAUGCCCCUUUGGUGCCCUGACGCAGCGCCUCCUGCA | -0.662 |
| CAAGUCCUGUGCUACACAUCGUAUGUACCGAAUCGGGGAAAGGGAAAGGAAAGGGGAAAGUAUUAUGUUACGCCGUUCGGAUCUGCACUU | 0.426 |
| CACAGACAACACGCACCCACACAGACACAGAGGGAAGGGGUUGGGAUGGGGACAGGGUGCACAGCAGGGCGGGGUAGGGCCCCAGCCCCU | 1.19 |
| GCAGGAAGUAAAAACAAAUGGAAAUGCUUCGGAUAGCGGCAGGGGUGGGGGUUGCUAAGGAAAGGGUGGGAUGGGAGUGGGUAAAGAGUU | 0.395 |
| UGGGAGGUGGAUUUUGUUUAUUUUUUUAGCUCAUUUCCAGGGGUGGGAAUUUUUUUUUAAUAUGAGUCAUGAAUAAAGUUGUUUUUGAAA | 0.0548 |
| CACAGACAACACGCACCCACACAGACACAGAGGGAAGGGGUUGGGAUGAAAACAGGGUGCACAGCAGGGCGGGGUAGGACCCCAGCCCCU | 0.535 |
| AAGUCCUGUGCUACACAUCGUAUGUACCGAAUCGGGGAGGGGAAAGGGGAAAGGGGAAAGUAUUAUGUUACGCCGUUCGGAUCUGCACUU | 0.679 |
| UCAAGUCCUGUGCUACACAUCGUAUGUACCGAAUCGGUGGAAAGGAAAAAAAGGAAAGUAUUAUGUUACGCCGUUCGGAUCUGCACUUCC | -0.513 |
| CUCAAGUCCUGUGCUACACAUCGUAUGUACCGAAUCGGGUGGGGUGGGUGGGGAAAGUAUUAUGUUACGCCGUUCGGAUCUGCACUUCCA | 1.02 |
| CCUCAAGUCCUGUGCUACACAUCGUAUGUACCGAAUCGGGCGGGGCGGGGCGGAAAGUAUUAUGUUACGCCGUUCGGAUCUGCACUUCCA | 0.527 |
| UGGCCCUGGUGGCAUGCAGGGAGGAAGAGGUGGCCUCAUGGAUCGUGGUGGUCCCGGUGGAAUGUUCAGAGGUGGCCGUGGUGGAGACAG | -0.149 |
| GUCCUGUGCUACACAUCGUAUGUACCGAAUCGGGGUGGGGAAAAAAAGGGGUUUGGGGAAAGUAUUAUGUUACGCCGUUCGGAUCUGCAC | 0.572 |
| GCAGGAAGUAAAAACAAAUGGCAAUGCUUCGGAUAGUGGCAGGGGUGGGGGUUGCUAAGGAAAGGGUGGGAUGGGAGUGGGUAAAGAGUU | 0.398 |

Set 6
Target: Sal-like protein 4, full length isoform B (SALL4, Homo sapiens, UniProt Q9UJQ4-2, residues 1-616)
Method: universal PBM
Molecule type: double-stranded DNA, one strand shown
Medium: in vitro
Tested at: not given
Setting: 8-mer, flanks averaged, mean of replicates
Direction: higher = stronger binding
Construct (chain): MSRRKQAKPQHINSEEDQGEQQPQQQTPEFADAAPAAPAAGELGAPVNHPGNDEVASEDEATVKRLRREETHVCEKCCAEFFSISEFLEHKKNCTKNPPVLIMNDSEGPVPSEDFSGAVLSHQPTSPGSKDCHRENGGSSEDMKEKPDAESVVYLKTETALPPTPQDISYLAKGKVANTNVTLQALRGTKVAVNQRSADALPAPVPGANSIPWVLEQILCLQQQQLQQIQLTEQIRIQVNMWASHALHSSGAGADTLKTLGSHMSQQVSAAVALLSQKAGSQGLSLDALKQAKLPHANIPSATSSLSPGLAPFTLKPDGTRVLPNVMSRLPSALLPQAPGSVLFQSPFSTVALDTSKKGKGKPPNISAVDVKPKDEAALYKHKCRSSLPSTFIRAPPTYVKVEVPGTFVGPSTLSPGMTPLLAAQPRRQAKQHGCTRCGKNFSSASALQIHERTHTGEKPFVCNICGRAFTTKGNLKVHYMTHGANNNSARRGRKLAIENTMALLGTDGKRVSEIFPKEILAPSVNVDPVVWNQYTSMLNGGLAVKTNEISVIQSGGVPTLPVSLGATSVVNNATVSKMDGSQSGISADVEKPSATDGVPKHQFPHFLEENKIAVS
| Sequence | E-score |
| --- | --- |
| CCTACCAA | 0.0179 |
| CCGCCGCC | -0.375 |
| AATTACGT | 0.222 |
| CGCACTCC | -0.201 |
| CGCTTGAG | -0.0484 |
| CATGAGAG | -0.13 |
| ACCGCCTA | -0.111 |
| ATCTTCCG | 0.00214 |
| CCCTTCGC | -0.207 |
| GGATTAAC | -0.0435 |
| ATTCCCGC | 0.0108 |
| GCCTGTCA | -0.156 |
| CGCACTAC | -0.165 |
| CGAGAGTC | -0.192 |
| AGCGACGC | -0.224 |
| CATTTCAG | 0.0284 |
| AACGCAGC | -0.155 |
| GGATACAC | -0.0562 |
| ATGGCTCA | -0.068 |
| CGCCAGCA | -0.192 |
| CAATACAA | 0.213 |
| AAAAGCTT | 0.127 |
| GACCTGCC | -0.324 |
| CTTCAATA | 0.337 |
| AATTCAAC | 0.159 |

Single results of other studies
| Molecule | target | test | system | conditions | scale | quantity | result |
| --- | --- | --- | --- | --- | --- | --- | --- |
| PhoQ, residues 284 288 289 292 302 303 TNSAEL | PhoP, residues 12 14 15 18 19 AQALL (Escherichia coli, UniProt P23836) | Sort-seq, refers to: YFP reporter | E. coli | PhoQ-PhoP variant library, with: 10 µM Mg2+ | baseline: high Mg2+ state, higher = stronger signaling | fold induction | 1.67 |
